Measured values from different studies.
Lines come from different studies, so protocols differ. Several values in a cell are separate wells, animals, samples, runs or records.
Target: Protein kinase C epsilon type (PRKCE, Homo sapiens, UniProt Q02156)
Residues used in one study (Q02156 1-737): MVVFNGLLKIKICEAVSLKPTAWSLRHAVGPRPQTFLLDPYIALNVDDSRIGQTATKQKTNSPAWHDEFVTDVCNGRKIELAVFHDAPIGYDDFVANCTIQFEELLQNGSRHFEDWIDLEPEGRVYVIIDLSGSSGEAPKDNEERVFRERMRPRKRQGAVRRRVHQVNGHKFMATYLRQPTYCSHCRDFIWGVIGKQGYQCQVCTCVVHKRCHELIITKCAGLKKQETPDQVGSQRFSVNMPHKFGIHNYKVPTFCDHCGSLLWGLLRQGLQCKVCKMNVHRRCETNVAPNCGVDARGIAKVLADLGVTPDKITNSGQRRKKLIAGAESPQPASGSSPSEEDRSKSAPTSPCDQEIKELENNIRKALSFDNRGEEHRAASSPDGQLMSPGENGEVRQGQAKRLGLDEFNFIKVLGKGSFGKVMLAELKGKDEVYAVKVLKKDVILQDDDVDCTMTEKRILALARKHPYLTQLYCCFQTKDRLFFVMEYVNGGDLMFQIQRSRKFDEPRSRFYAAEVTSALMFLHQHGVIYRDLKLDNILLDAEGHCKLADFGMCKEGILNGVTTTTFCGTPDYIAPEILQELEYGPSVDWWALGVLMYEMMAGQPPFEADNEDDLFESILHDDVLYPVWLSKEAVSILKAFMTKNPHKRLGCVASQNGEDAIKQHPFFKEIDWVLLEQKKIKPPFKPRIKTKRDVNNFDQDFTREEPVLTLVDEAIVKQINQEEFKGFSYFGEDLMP

O=C(N[C@@H]1c2ccccc2C[C@H]1N1CCCC1)c1ccc(-c2ccnc3[nH]ccc23)nc1
remaining binding (binding, competition with immobilised ligand; 3 µM): 0%

O=C1NC(=O)c2c1c1cc(F)c[n+]3c1c1c2c2cc(O)ccc2[n]1[Ru-4]312([N]=C=S)[S+]3CC[S+]1CC[S+]2CC3 (centres unmarked)
remaining activity (enzyme activity; 100 nM, human enzyme, added: 10 µM ATP; relative to: untreated): 62%

[CH3][Ti+2][O]C(=O)c1ccc([S][Au][PH](c2ccccc2)(c2ccccc2)c2ccccc2)cc1.c1cc[cH-]c1.c1cc[cH-]c1
remaining activity (kinase activity; 1 µM, added: ATP 10 µM): 90.8% and 88.9%

CS(C)(=O)=Nc1ccc(-c2ccc(-c3nc4cc(O[C@@H]5CO[C@H]6[C@@H]5OC[C@H]6O)[nH]c4cc3F)cc2)cc1
inhibition (enzyme activity, inhibitor; 10 µM): 4%

CC(C)[C@H]1NC(=O)C[C@H]2/C=C/CCSSC[C@@H](NC1=O)C(=O)N[C@H](Cc1cccc3ccccc13)C(=O)NCC(=O)O2
inhibition (enzyme activity, inhibitor; 10 µM): 14.3%

CCOC(=O)[C@@H]1Cc2c(cc([N+](=O)[O-])cc2[N+](=O)[O-])[C@H](O)[C@]12C(=O)Nc1ccc(Br)cc12
remaining binding (binding, competition with immobilised ligand; 0.1 µM): 71%

C[C@H](NCc1ccc(-c2ccc(C(F)(F)F)cc2)cc1)C(N)=O
inhibition (cell-free assay, competition with immobilised ligand; 1 µM): 0%

Nc1ccc(/C=C/C(=O)N2CCc3c(oc4c(-c5ccc(F)cc5)cc(-c5ccc(C(=O)N6CCC(F)(F)CC6)cn5)cc34)C2)cn1
remaining binding (binding, competition with immobilised ligand; 1 µM): 90%

Some of these lines once more:
[CH3][Ti+2][O]C(=O)c1ccc([S][Au][PH](c2ccccc2)(c2ccccc2)c2ccccc2)cc1.c1cc[cH-]c1.c1cc[cH-]c1
remaining activity (kinase activity; 1 µM, added: ATP 10 µM): 90.8% and 88.9%
